{"data": "Published values collected from several papers", "cell line": "A549", "note": "Compare with care: the assays were run in different laboratories. ± marks the error that the study gave."}
{"SMILES": "COc1c(O)cc2oc3cc(O)c4c(c3c(=O)c2c1CCC(C)(C)O)OC(C)(C)CC4", "assay": "cell growth or viability", "conditions": "48 h", "IC50": "> 40 µM"}
{"SMILES": "Cc1ccc(C(C)C)cc1.F[P-](F)(F)(F)(F)F.O=C(N=P(c1ccccc1)(c1ccccc1)c1ccccc1)c1ccccn1.[Cl-].[Ru+2]", "assay": "cell growth or viability, MTT", "conditions": "24 h", "IC50": "9.9 µM"}
{"SMILES": "N[C@@H]1CCCC[C@H]1N.O=C1[O][Pt]2([O]C1=O)[O]C(=O)C(=O)[O]2", "assay": "cell viability, MTT", "conditions": "96 h", "IC50": "46 ± 7 µM"}
{"SMILES": "COc1ccc(/C=C2\\SC(N3N=C(c4ccc(OC)cc4)CC3c3ccc(F)cc3)=NC2=O)cc1 (centres unmarked)", "assay": "cell growth or viability, MTT", "IC50": "21.7 µM"}
{"SMILES": "O=C(NCCN1CCOCC1)c1cc2c3ccccc3n3c(=O)ccc(n1)c23", "assay": "cell growth or viability, MTT", "conditions": "72 h", "IC50": "2.3 µM"}
{"SMILES": "COc1cc(C(=O)c2[nH]c(N)nc2-c2ccc(Cl)cc2)cc(OC)c1OC", "assay": "cell growth or viability, SRB", "conditions": "24 h", "IC50": "0.725 µM"}
{"SMILES": "N.N.O=C(CCCc1ccccc1)[O][Pt]([Cl])([Cl])[O]C(=O)CCCc1ccccc1", "assay": "cell growth or viability", "IC50": "0.17 µM"}
{"SMILES": "O=C1c2cccc3cccc(c23)C12NC(Cc1ccc(O)cc1)C([N+](=O)[O-])C2c1ccc(Br)cc1 (centres unmarked)", "assay": "cell growth or viability, MTT", "conditions": "48 h", "IC50": "33.6 µM"}
{"SMILES": "C=C(CC)C(=O)c1ccc(OCC(=O)NCCNC(=O)COc2ccc(C(=O)C(=C)CC)c(Cl)c2Cl)c(Cl)c1Cl", "assay": "cell growth or viability, CCK-8", "conditions": "72 h", "IC50": "~1.2 µM"}
{"SMILES": "Cc1cc(C#N)cc(C)c1Oc1cc(Nc2ccc(C#N)cn2)nc2ccncc12", "conditions": "48 h", "IC50": "> 127 µM"}
{"SMILES": "COc1ccc(/N=N/C(=S)N2CCN(C)CC2)cc1", "assay": "cell growth or viability, resazurin", "conditions": "48 h", "IC50": "> 50 µM"}
{"SMILES": "S=c1n(-c2ccccc2)c2c3ccccc3nc3[n+]2[n]1[Ir-3]12([S]3)([c]3ccccc3-c3cccc[n+]31)[c]1ccccc1-c1cccc[n+]12", "assay": "cell viability, MTT", "conditions": "dark", "IC50": "> 50 µM"}
{"SMILES": "CC(C)c1cccc(C(C)C)c1N=[C](NCc1ccc(N)cc1)[AuH][Cl]", "assay": "cell growth or viability", "IC50": "> 100 µM"}
{"SMILES": "CC(C)=CCC1=C([O-])C(=O)c2ccccc2C1=O.CC(C)=CCC1=C([O-])C(=O)c2ccccc2C1=O.[Cu+2].c1ccc(-c2ccccn2)nc1", "assay": "cell viability, MTT", "conditions": "24 h", "IC50": "33.9 ± 1.6 µM"}
{"SMILES": "CCCCCC(=O)NCCNC(=O)[C@@]1(C)[C@H](O)CC[C@@]2(C)[C@H]1CC[C@]1(C)[C@@H]2C(=O)C=C2[C@@H]3[C@@H](C)[C@H](C)CC[C@]3(C)CC[C@]21C", "assay": "cell growth or viability, MTT", "conditions": "48 h", "IC50": "28.8 µM"}
{"SMILES": "CCCCSc1nc(N)c2c(F)c(C#N)c(F)c(Cl)c2n1", "assay": "cell growth or viability, MTT", "conditions": "96 h", "IC50": "> 100 µM"}
{"SMILES": "[Cl-].[Cl-].[Ru+2].c1ccc(-c2ccccn2)nc1.c1ccc(-c2ccccn2)nc1.c1ccc(-c2ccnc3c2ccc2c(-c4ccccc4)ccnc23)cc1", "assay": "maximal respiration, oxygen consumption, Seahorse extracellular flux", "conditions": "together with: indigo light 450 nm", "IC50": "0.5 µM"}
{"SMILES": "COc1cc(N(C)CCN(C)C)c(NC(=O)/C=C/c2ccc3c(c2)OCO3)cc1Nc1nccc(-c2cn(C)c3ccccc23)n1", "assay": "cell growth or viability, MTT", "conditions": "72 h", "IC50": "0.295 µM"}
{"SMILES": "N#Cc1cccc(-c2ccc(=O)n(Cc3cccc(-c4ncc(OCC5CCN(CC(=O)N6CCN(CCNc7ccc8c(c7)C(=O)N(C7CCC(=O)NC7=O)C8=O)CC6)CC5)cn4)c3)n2)c1 (centres unmarked)", "assay": "cell growth or viability, CCK-8", "conditions": "72 h", "IC50": "0.665 µM"}
{"SMILES": "COc1c(OC(C)=O)cc2oc3cc(OC(C)=O)c(CC=C(C)C)c(O)c3c(=O)c2c1CC=C(C)C", "assay": "cell growth or viability", "conditions": "48 h", "IC50": "11.6 µM"}
{"SMILES": "CC(C)c1cccc(C(C)C)c1N=[C](NCc1cccc(N)c1)[AuH][Cl]", "assay": "cell growth or viability", "IC50": "> 100 µM"}
{"SMILES": "CC(C)(C)c1ccc2[c](c1)[Au-]1([Cl])[c]3cc(C(C)(C)C)ccc3-c3cncc-2[n+]31", "assay": "cell growth or viability, MTS", "IC50": "> 50 µM"}
{"SMILES": "Cc1cc(C)c([N+]#[C][Pd-]([Cl])([Cl])=[C](Nc2cccc(CN[C](NC(C)(C)C)=[Au][Cl])c2)Nc2c(C)cc(C)cc2C)c(C)c1", "assay": "cell growth or viability", "IC50": "> 100 µM"}
{"SMILES": "COc1ccc(NC(=O)N/N=C2\\CC3(CCN(C)CC3)Oc3ccccc32)cc1", "assay": "cell growth or viability, MTT", "conditions": "48 h", "IC50": "29.4 µM"}
{"SMILES": "CC1=CC(C)=[N+]2C1=C(CO)c1c(C)cc(C)n1[B-]2(C)C", "assay": "cell viability, resazurin", "conditions": "48 h, 510 nm irradiation 2.44 J/cm2", "IC50": "1 ± 0.4 µM"}
{"SMILES": "CN(C)CCCO/N=C1/C=C2CCC3C(CC[C@]4(C)/C(=C/c5ccccn5)CCC34)[C@@]2(C)CC1 (some centres unmarked)", "assay": "cell growth or viability, MTT", "conditions": "72 h", "IC50": "18.9 µM"}
{"SMILES": "COc1cc(N(C)CCN(C)C)c(NC(=O)/C=C/c2ccc3nc(C)ccc3c2)cc1Nc1nccc(-c2cn(C)c3ccccc23)n1", "assay": "cell growth or viability, MTT", "conditions": "72 h", "IC50": "0.114 µM"}
{"SMILES": "O=C1C[C@@H](c2ccccc2)Oc2c(Cc3ccccc3O)c(O)cc(O)c21", "assay": "cell viability, MTT", "conditions": "72 h", "IC50": "inactive"}
{"SMILES": "Cc1ccc(S(=O)(=O)c2c(-c3ccccc3)c3c(C)c4ccc(C)cc4n3c3ccccc23)cc1", "assay": "cell growth or viability, MTT", "conditions": "72 h", "IC50": "13.7 µM"}
{"SMILES": "C1=CCCC=CCC1.F[P-](F)(F)(F)(F)F.[Pt+][c]1ccccc1P(=Nc1ccccc1)(c1ccccc1)c1ccccc1", "assay": "cell growth or viability, MTT", "conditions": "24 h", "IC50": "2.01 µM"}
{"SMILES": "O=C(CN1C(=O)S/C(=C\\c2ccccc2)C1=O)Nc1ccc(C(=O)Nc2ccc(F)cc2)cc1", "assay": "cell growth or viability, MTT", "IC50": "19.4 µM"}
{"SMILES": "c1ccc(-n2nc(-c3ccccn3)n[n+]2-c2ccccc2)cc1", "assay": "cell growth, resazurin", "IC50": "100 ± 10 µM"}
{"SMILES": "C=C1C(=O)[C@@]23CC[C@@H]4C(C)(C)CCC[C@@]4(CO)[C@@H]2[C@@H](O)C[C@@H]1C3", "assay": "cell growth or viability, MTT", "IC50": "13 µM"}
{"SMILES": "CC(C)=CCn1c2ccc(Br)c(=O)c-2nc2ccccc21", "assay": "cell growth or viability, CCK-8", "conditions": "72 h", "IC50": "0.33 µM"}
{"SMILES": "N#Cc1cccc(-c2ccc(=O)n(Cc3cccc(-c4ncc(OCC5CCN(CC(=O)NCCOCCNc6ccc7c(c6)C(=O)N(C6CCC(=O)NC6=O)C7=O)CC5)cn4)c3)n2)c1 (centres unmarked)", "assay": "cell growth or viability, CCK-8", "conditions": "72 h", "IC50": "0.511 µM"}
{"SMILES": "CC(=O)[O-].O.O.[O-]c1ccc(Br)cc1C=NCCN1CCOCC1.[Zn+2]", "assay": "cell viability, MTT", "conditions": "72 h", "IC50": "30.4 µg/mL"}
{"SMILES": "N=C(N)Nc1nc2ccccc2[nH]1", "assay": "cell growth or viability, MTT", "conditions": "24 h", "IC50": "> 200 µM"}
{"SMILES": "COC(=O)[C@@H]1CCCN1C(=O)[C@H](Cc1ccccc1)NC(=O)OC(C)(C)C", "assay": "cell growth or viability, SRB", "IC50": "6 µM"}
{"SMILES": "C[N+]1(C)CC[NH2+][Pt-2]1([OH])([Cl])([Cl])[O]C(=O)CCC(=O)O", "assay": "cell growth or viability, MTT", "conditions": "96 h", "IC50": "145 µM"}
{"SMILES": "COc1ccc(/C=C/C2=[N+]3C(=C(CO)c4c(C)cc(/C=C/c5ccc(OC)cc5)n4[B-]3(F)F)C(C)=C2)cc1", "assay": "phototoxicity, resazurin", "conditions": "together with: 645 nm light, 9.00 J/cm2", "IC50": "0.45 ± 0.14 µM"}
{"SMILES": "CC(=O)O[C@@H]1CC[C@@]2(C)[C@@H](CC[C@]3(C)[C@@H]2C(=O)C=C2[C@@H]4[C@@H](C)[C@H](C)CC[C@]4(C)CC[C@]23C)[C@@]1(C)C(=O)NCCNC(=O)CCCCCCCBr", "assay": "cell growth or viability, MTT", "conditions": "48 h", "IC50": "16.9 µM"}
{"note": "Excerpt of the above:"}
{"SMILES": "O=C(CN1C(=O)S/C(=C\\c2ccccc2)C1=O)Nc1ccc(C(=O)Nc2ccc(F)cc2)cc1", "assay": "cell growth or viability, MTT", "IC50": "19.4 µM"}
{"SMILES": "c1ccc(-n2nc(-c3ccccn3)n[n+]2-c2ccccc2)cc1", "assay": "cell growth, resazurin", "IC50": "100 ± 10 µM"}
{"SMILES": "C=C1C(=O)[C@@]23CC[C@@H]4C(C)(C)CCC[C@@]4(CO)[C@@H]2[C@@H](O)C[C@@H]1C3", "assay": "cell growth or viability, MTT", "IC50": "13 µM"}
{"SMILES": "CC(C)=CCn1c2ccc(Br)c(=O)c-2nc2ccccc21", "assay": "cell growth or viability, CCK-8", "conditions": "72 h", "IC50": "0.33 µM"}
